Measured values collected from several papers.
Parts stem from different laboratories: compare values within a part only. ± gives the spread as reported.
UniProt Q16566, sequence (whole entry, looked up): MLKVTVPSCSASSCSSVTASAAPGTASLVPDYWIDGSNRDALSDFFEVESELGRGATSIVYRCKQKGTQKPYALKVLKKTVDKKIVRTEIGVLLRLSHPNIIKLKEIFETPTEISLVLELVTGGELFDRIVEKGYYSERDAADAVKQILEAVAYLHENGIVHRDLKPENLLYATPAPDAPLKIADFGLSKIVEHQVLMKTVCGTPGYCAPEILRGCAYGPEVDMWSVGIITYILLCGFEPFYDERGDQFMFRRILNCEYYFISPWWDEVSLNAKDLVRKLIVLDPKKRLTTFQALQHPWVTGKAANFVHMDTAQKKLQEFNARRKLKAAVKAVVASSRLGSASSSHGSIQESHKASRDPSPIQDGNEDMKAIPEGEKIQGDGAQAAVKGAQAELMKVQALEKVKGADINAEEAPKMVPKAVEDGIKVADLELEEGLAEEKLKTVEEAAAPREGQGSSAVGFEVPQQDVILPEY
UniProt P32298, sequence (whole entry, looked up): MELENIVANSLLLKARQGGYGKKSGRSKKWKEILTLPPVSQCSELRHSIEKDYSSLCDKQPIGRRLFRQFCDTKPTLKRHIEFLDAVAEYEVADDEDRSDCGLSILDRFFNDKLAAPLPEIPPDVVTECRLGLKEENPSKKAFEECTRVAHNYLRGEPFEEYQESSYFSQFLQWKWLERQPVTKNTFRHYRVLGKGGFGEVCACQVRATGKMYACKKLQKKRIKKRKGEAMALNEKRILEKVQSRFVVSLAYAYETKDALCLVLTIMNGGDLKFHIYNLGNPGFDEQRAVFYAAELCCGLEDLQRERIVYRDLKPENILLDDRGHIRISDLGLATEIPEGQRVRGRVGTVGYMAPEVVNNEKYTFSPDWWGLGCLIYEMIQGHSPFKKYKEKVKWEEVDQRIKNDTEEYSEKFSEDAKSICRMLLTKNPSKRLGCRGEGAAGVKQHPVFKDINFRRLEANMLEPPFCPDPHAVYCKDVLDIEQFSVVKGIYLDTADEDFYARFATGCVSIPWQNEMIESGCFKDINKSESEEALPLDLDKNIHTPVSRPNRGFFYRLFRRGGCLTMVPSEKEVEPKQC
UniProt O75676, sequence (whole entry, looked up): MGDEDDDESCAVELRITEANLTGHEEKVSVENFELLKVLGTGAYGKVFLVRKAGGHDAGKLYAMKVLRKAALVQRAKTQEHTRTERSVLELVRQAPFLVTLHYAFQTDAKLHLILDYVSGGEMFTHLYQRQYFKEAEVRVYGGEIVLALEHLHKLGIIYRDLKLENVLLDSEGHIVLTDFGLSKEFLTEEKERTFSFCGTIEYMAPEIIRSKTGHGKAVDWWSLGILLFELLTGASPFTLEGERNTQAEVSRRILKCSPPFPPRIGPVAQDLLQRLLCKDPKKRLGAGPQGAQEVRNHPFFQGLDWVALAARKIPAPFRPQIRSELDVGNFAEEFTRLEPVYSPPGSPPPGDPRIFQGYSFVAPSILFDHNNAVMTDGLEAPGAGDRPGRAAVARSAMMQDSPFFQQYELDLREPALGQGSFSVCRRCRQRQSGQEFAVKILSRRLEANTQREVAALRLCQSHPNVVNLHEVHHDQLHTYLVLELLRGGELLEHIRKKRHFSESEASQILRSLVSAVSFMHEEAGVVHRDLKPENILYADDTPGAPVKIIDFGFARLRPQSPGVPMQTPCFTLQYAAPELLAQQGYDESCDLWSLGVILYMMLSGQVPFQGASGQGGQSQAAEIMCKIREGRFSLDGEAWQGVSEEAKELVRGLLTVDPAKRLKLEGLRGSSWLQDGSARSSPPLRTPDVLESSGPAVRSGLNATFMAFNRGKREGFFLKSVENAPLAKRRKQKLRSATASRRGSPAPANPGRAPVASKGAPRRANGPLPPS
UniProt Q8WXR4, sequence (whole entry, looked up): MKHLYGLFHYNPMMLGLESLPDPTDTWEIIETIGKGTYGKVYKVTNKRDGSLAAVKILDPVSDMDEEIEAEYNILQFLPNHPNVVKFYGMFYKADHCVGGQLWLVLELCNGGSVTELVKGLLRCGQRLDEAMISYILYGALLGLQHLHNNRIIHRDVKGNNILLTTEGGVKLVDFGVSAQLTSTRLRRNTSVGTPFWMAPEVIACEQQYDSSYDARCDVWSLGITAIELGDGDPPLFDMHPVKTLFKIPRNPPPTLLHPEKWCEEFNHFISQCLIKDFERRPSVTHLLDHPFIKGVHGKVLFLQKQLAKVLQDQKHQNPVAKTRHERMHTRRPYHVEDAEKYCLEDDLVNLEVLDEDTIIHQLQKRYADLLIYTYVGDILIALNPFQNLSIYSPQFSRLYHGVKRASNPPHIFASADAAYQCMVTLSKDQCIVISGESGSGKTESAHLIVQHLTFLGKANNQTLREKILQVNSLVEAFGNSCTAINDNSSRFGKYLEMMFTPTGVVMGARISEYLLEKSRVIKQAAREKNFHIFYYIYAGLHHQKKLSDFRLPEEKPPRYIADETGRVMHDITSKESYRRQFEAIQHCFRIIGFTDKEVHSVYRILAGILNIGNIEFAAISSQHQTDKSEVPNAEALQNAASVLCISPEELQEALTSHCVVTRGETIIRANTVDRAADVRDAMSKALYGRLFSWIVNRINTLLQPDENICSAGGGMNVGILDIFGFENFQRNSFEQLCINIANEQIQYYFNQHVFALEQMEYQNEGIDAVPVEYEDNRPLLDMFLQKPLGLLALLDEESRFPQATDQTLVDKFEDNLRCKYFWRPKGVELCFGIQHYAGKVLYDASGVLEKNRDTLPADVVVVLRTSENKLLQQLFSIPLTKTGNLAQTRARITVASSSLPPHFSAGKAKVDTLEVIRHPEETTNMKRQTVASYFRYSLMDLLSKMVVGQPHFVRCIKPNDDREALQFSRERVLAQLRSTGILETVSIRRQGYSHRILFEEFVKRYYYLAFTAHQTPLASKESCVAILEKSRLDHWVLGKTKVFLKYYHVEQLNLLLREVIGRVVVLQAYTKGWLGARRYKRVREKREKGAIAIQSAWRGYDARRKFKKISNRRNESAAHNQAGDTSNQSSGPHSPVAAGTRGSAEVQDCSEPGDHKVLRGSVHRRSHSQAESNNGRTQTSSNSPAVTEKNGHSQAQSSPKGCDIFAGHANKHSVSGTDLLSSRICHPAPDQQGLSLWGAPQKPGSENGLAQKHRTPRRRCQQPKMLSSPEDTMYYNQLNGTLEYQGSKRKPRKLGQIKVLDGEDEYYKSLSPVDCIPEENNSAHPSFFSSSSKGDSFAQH
UniProt Q8N4C8, sequence (whole entry, looked up): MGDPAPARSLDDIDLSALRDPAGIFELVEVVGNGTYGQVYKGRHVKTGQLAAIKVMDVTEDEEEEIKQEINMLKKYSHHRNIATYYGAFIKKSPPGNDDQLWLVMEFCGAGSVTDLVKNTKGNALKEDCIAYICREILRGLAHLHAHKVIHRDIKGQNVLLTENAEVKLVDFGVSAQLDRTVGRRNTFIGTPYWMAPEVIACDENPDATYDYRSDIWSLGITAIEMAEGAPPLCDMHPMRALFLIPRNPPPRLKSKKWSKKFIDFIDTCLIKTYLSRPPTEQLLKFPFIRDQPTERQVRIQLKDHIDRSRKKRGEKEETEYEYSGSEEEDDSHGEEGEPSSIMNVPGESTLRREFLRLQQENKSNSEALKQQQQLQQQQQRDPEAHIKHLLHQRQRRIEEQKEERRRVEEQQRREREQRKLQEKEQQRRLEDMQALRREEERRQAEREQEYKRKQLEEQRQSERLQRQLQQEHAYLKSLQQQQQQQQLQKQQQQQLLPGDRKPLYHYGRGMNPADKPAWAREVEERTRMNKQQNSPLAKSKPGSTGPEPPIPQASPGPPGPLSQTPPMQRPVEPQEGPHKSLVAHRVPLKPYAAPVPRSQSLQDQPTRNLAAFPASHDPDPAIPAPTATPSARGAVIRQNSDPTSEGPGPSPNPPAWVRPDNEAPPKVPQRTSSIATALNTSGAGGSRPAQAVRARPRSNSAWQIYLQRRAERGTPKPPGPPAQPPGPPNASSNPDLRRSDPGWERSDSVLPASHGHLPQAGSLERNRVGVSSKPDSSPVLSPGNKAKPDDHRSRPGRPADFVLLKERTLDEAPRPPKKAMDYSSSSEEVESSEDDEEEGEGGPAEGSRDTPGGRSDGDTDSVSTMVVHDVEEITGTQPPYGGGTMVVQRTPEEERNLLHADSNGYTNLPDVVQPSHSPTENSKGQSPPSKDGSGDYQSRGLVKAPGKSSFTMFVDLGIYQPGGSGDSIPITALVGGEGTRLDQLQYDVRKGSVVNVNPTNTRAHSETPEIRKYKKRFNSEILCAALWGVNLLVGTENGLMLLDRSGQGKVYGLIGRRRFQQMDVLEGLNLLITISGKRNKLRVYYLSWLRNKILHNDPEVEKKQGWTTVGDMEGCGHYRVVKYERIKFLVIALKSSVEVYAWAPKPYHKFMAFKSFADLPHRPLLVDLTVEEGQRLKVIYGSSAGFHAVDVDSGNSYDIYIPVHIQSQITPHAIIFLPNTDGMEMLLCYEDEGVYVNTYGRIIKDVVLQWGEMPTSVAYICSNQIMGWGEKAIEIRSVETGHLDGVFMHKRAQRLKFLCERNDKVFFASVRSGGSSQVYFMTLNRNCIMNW
UniProt P49761, sequence (whole entry, looked up): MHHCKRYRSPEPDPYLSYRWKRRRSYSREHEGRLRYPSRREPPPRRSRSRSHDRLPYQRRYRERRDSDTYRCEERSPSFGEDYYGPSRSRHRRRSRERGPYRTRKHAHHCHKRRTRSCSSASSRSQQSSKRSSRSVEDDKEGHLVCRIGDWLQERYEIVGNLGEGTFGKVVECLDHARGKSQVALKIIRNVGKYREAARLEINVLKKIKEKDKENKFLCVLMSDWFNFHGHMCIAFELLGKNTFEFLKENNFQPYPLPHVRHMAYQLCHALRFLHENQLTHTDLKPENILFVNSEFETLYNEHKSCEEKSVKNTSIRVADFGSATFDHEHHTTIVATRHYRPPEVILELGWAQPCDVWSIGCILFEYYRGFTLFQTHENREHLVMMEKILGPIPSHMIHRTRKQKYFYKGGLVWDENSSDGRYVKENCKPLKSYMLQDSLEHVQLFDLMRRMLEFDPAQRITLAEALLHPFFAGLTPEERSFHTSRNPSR

Sample 1
SMILES: NC(=O)c1ccc(N(C(N)=O)c2c(F)cccc2F)nc1-c1ccc(F)cc1F
Effect on: enzyme activity
Mode: inhibitor
Concentration: 0.5 µM
Baseline: control
Endpoint: remaining activity
target = GRK4 (Homo sapiens, UniProt P32298); result = 90.7%
target = CLK3 (Homo sapiens, UniProt P49761); result = 112%
target = MAP2K1 (Homo sapiens, UniProt Q02750); result = 89%
target = ROCK1 (Homo sapiens, UniProt Q13464); result = 108%
target = MINK1 (Homo sapiens, UniProt Q8N4C8); result = 100%
target = MAPK14 (Homo sapiens, UniProt Q16539); result = 5.23%
target = MARK2 (Homo sapiens, UniProt Q7KZI7); result = 131%
target = CAMK4 (Homo sapiens, UniProt Q16566); result = 91.9%
target = PNCK (Homo sapiens, UniProt Q6P2M8); result = 108%
target = Cyclin-dependent kinase 1, with cyclin A (CDK1, Homo sapiens, UniProt P06493); result = 101%
target = TXK (Homo sapiens, UniProt P42681); result = 104%
target = DCLK2 (Homo sapiens, UniProt Q8N568); result = 97.5%
target = RPS6KA4 (Homo sapiens, UniProt O75676); result = 99%
target = Myosin-IIIb (MYO3B, Homo sapiens, UniProt Q8WXR4); result = 99.2%

Sample 2
Cell line: A-375
Concentration: 100 µM
Time: 36 h
Endpoint: viability
SMILES = CCN(CC)CCNC(=O)c1cc(Cl)c(N)cc1OC; result = 91.8%
SMILES = COc1ccccc1N1CCN(CC(O)COc2cccc3ccccc23)CC1 (stereo not drawn); result = 39.2%
SMILES = O=C1CCC(N2C(=O)c3ccccc3C2=O)C(=O)N1 (stereo not drawn); result = 115%
SMILES = COc1cc(NS(=O)(=O)c2ccc(N)cc2)ncn1; result = 118%

Sample 3
SMILES: CCC(=O)N[C@H]1CC[C@@H](C(=O)N(C)c2ccc(-c3nc4ccccc4o3)cc2)C1
Effect on: cell-free assay
Method: competition with immobilised ligand
Concentration: 1 µM
Endpoint: remaining binding
target = PIK3CA (Homo sapiens, UniProt P42336, E545A); result = 90%
target = WEE2 (Homo sapiens, UniProt P0C1S8); result = 96%
target = TLK1 (Homo sapiens, UniProt Q9UKI8); result = 84%
target = PIP4K2B (Homo sapiens, UniProt P78356); result = 54%
target = Tyrosine-protein kinase ABL1, non-phosphorylated (ABL1, Homo sapiens, UniProt P00519, Q252H); result = 72%

Sample 4
Compound: COc1cc(C(=O)N2CCC(N3CCN(C)CC3)CC2)ccc1Nc1ncc2c(n1)N(C)c1ccccc1C(=O)N2C
Endpoint: remaining activity
target = TTK; assay = kinase activity; setting = 1 µM; result = 84 ± 9%
target = NUAK1 (Homo sapiens, UniProt O60285); setting = 10 µM; result = 19 ± 5%
target = CK2; assay = kinase activity; setting = 1 µM; result = 71 ± 6%
target = HIPK2; assay = kinase activity; setting = 10 µM; result = 86 ± 2%
target = MST4; assay = kinase activity; setting = 1 µM; result = 90 ± 9%
target = MSK1; assay = kinase activity; setting = 10 µM; result = 84 ± 6%
target = CAMKKb; assay = kinase activity; setting = 10 µM; result = 53 ± 2%

Excerpt of the above (sample 1):
target = ROCK1 (Homo sapiens, UniProt Q13464); result = 108%
target = CAMK4 (Homo sapiens, UniProt Q16566); result = 91.9%
